Measured values from different studies.
Every numbered part comes from another study and shows a few of its results, in no order. Changes are numbered by the printed parent chain.

Study 1
Target: PABPC1L2, full length, GST fusion (mouse, UniProt A0ABA7IW68)
Method: RNAcompete
Molecule type: RNA
Matrix: in vitro
Concentration: 20 nM
Notes: 7-mer, probes averaged, single round
Relative to: mean of 7-mers
Reading: higher = stronger binding
Construct (chain): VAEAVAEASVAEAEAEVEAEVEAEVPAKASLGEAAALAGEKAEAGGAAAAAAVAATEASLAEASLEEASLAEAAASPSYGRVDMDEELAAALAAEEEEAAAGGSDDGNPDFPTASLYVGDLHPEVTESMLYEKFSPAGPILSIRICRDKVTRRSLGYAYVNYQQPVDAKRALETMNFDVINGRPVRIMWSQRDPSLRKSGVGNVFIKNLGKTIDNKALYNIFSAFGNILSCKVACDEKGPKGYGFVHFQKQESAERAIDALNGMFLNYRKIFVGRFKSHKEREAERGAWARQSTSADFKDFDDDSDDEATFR
| Sequence | 7-mer Z-score |
| --- | --- |
| GCCCCGC | -0.456 |
| CCUUAUA | -0.342 |
| GAUAGAC | -0.184 |
| UCUCCUC | -0.393 |
| CACGGGC | 0.178 |
| GGUGUUG | -0.0645 |
| AGCUGCA | -0.0736 |
| UGUCCUU | -0.284 |

Study 2
Target: BATF3, bZIP domain (human)
Method: DHFR protein complementation
Matrix: yeast
Notes: single substitutions, most at no-binding floor
Relative to: wild-type JUN-FOS pair
Reading: higher = stronger binding
Starting sequence: JUN, bZIP domain (human); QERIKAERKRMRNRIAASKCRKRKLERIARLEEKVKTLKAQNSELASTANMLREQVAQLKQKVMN; partner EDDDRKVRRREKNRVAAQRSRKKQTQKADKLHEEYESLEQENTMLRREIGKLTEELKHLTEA
| Substitution | binding fitness [natural log] |
| --- | --- |
| S43P | -0.0847 |
| I28K | 0.233 |
| S43T | 0.263 |
| V35E | -0.313 |
| S47I | 0.186 |
| S43R | 0.286 |
| L52E | -1.03 |
| V35N | 0.0724 |

Mixed results
HTR2B: 5-hydroxytryptamine receptor 2B (HTR2B, Homo sapiens, UniProt P41595)
Chain of UniProt P41595 (whole entry, looked up): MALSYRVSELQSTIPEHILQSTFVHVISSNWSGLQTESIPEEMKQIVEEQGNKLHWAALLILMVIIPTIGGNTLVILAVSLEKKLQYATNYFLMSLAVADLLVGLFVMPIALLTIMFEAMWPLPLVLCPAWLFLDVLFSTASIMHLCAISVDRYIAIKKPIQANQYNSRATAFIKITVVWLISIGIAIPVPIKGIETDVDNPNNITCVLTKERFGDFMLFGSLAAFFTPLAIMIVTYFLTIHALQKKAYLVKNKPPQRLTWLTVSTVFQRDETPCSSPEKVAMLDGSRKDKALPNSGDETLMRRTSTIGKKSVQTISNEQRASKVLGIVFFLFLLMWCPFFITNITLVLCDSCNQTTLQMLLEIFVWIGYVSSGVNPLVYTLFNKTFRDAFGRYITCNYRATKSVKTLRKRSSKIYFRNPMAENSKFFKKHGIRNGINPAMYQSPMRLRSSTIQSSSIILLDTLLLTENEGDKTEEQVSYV
CSNK1E: Casein kinase I isoform epsilon (CSNK1E, Homo sapiens, UniProt P49674)
Chain of UniProt P49674 (whole entry, looked up): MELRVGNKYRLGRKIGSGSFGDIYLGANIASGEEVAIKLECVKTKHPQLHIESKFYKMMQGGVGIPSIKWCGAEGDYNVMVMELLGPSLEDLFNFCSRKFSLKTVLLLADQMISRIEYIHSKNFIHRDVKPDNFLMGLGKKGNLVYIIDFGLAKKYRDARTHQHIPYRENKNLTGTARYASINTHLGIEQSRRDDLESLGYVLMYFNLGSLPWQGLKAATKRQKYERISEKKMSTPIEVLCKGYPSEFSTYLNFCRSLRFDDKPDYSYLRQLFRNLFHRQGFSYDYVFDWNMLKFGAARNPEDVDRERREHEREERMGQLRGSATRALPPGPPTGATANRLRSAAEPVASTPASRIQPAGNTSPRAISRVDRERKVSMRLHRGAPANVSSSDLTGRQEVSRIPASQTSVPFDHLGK
| Compound | target | test | setting | how to read | measurement | value |
| --- | --- | --- | --- | --- | --- | --- |
| CNC(=O)c1ccc(Nc2ncc(C(F)(F)F)c(NCc3nccnc3N(C)S(C)(=O)=O)n2)cc1 | HTR2B | binding, radioligand binding | 10 µM |  | inhibition | 5.73% |
| O=C(Nc1cccc(Nc2cc(Nc3cccc(C(F)(F)F)c3)ncn2)c1)C1CC1 | CSNK1E | enzyme activity, inhibitor | 0.5 µM | relative to: control | remaining activity | 98.1% |
| O=C(NC[C@@H]1[C@H]2CN(C(=O)OCc3cc(C(F)(F)F)cc(C(F)(F)F)c3)C[C@@H]12)c1ccc2[nH]nnc2c1 | HTR2B | cell-free assay | 10 µM |  | inhibition | 45.9% |
| CCOC(=O)c1c(C)[nH]c(/C=C2\C(=O)Nc3ccccc32)c1C | CSNK1E | enzyme activity, inhibitor | 0.5 µM | relative to: control | remaining activity | 73.7% |
